Results pooled from the literature.
Every numbered part comes from another study and shows a few of its results, in no order.
Sequence of UniProt P09619 (whole entry, looked up): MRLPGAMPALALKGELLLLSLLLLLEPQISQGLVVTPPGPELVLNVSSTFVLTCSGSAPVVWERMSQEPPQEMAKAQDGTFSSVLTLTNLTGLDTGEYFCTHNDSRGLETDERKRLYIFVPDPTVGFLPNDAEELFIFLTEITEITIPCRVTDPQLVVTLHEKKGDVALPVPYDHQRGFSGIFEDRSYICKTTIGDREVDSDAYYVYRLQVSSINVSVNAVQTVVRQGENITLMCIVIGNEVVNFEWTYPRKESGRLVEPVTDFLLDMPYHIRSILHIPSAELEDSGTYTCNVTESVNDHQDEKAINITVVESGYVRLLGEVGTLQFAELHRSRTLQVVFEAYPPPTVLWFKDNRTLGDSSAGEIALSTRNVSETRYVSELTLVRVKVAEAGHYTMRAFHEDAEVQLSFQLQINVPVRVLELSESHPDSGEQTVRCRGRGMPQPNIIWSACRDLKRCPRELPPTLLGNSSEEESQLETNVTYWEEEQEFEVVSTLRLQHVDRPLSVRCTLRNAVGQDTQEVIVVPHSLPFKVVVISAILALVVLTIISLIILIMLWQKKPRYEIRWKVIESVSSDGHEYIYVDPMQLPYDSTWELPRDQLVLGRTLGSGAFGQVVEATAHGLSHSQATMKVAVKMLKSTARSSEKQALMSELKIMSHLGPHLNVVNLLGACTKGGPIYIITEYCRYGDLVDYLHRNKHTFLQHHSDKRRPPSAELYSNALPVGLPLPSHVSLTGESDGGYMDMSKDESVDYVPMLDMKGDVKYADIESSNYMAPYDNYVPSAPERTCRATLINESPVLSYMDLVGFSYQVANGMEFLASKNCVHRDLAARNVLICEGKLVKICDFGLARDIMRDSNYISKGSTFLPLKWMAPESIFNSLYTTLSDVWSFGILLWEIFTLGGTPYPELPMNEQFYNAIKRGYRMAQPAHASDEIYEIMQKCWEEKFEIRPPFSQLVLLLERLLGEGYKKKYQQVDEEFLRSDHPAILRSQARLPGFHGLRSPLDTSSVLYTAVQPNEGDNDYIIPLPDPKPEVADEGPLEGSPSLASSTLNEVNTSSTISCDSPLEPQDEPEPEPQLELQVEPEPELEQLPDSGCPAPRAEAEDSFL
Sequence of UniProt P52333 (whole entry, looked up): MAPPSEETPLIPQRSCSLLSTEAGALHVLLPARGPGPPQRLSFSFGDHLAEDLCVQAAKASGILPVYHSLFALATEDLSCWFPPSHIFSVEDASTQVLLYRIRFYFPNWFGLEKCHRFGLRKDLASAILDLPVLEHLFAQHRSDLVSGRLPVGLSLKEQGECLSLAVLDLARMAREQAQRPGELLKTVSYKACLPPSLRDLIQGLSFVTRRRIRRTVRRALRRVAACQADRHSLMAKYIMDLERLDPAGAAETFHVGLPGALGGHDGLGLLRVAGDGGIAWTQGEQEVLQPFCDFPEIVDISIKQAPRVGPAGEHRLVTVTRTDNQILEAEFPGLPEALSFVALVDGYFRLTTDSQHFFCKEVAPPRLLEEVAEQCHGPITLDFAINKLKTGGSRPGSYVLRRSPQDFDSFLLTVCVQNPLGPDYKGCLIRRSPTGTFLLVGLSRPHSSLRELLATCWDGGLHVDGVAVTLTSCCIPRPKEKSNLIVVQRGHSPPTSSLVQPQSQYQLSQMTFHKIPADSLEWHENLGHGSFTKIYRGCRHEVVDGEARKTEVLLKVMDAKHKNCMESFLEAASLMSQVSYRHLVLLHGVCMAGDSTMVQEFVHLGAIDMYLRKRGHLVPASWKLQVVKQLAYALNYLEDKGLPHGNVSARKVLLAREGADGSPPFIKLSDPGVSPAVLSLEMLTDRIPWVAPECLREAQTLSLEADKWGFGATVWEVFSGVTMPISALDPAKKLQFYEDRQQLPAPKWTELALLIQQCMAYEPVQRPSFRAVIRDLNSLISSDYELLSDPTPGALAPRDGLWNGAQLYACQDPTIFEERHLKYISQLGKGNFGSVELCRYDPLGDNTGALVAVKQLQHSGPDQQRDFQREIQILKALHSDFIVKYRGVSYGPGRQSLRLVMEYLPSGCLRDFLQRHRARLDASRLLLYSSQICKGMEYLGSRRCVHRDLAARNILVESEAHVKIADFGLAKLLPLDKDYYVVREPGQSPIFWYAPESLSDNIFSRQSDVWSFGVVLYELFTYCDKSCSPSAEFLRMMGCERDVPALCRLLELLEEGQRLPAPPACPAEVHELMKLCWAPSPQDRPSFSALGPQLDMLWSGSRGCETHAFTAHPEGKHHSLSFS
Sequence of UniProt Q8NEB9 (whole entry, looked up): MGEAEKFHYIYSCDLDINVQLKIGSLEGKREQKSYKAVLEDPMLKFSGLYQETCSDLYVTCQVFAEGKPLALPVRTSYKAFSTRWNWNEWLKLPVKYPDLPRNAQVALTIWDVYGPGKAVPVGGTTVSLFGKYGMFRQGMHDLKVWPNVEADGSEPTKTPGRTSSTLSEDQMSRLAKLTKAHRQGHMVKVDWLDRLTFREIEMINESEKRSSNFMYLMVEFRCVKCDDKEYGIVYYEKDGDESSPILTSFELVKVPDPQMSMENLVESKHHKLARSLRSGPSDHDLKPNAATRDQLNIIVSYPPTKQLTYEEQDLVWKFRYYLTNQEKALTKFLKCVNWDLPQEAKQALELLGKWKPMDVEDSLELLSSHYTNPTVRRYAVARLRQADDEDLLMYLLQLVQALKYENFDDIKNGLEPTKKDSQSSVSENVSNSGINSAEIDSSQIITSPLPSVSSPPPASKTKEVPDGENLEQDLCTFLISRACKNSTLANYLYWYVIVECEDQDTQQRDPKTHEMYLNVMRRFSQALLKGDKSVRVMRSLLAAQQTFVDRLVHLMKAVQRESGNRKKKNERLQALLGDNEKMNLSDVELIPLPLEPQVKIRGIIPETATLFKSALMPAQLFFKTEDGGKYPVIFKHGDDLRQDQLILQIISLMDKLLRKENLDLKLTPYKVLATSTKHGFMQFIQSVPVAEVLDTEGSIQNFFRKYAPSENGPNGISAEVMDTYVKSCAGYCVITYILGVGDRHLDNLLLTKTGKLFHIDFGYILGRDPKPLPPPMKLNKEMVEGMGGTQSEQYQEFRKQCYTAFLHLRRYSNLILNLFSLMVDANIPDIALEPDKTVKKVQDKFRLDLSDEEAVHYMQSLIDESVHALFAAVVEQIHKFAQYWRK
Sequence of UniProt Q96Q40 (whole entry, looked up): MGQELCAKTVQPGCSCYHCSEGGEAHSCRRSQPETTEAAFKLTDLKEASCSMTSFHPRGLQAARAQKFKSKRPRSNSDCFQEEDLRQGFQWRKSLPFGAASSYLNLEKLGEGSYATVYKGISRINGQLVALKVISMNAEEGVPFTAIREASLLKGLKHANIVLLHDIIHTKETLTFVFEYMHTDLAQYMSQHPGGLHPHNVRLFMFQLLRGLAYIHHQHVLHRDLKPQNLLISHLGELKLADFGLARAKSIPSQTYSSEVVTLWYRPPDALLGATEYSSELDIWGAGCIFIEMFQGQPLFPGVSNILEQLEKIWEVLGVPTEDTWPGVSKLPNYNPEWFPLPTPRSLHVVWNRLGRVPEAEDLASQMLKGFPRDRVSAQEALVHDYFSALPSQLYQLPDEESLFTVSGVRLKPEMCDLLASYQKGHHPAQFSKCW
Sequence of UniProt Q9HC98 (whole entry, looked up): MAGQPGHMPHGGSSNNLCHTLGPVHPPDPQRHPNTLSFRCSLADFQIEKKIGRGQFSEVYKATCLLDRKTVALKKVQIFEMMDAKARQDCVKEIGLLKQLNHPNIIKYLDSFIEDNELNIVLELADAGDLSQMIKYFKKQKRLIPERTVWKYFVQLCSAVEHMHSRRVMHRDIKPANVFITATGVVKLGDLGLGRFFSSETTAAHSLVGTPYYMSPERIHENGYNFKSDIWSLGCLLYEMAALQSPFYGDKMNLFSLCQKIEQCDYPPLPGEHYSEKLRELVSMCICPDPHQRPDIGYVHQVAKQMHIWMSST
Sequence of UniProt Q86Y07 (whole entry, looked up): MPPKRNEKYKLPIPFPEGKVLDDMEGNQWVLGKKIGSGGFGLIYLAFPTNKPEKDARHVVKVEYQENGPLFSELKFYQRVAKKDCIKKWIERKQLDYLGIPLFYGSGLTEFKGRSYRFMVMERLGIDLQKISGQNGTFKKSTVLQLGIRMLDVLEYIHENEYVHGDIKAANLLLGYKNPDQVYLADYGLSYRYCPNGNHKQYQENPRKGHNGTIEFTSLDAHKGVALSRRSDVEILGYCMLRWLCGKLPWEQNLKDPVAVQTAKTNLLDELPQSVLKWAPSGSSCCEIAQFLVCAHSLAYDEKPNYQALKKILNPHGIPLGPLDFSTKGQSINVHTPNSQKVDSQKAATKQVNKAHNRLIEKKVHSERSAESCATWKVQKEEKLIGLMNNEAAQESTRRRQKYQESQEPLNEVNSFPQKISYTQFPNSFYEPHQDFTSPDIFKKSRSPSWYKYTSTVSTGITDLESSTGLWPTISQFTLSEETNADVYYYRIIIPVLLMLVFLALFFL

Set 1
Cell line: A-375
Tested at: 100 µM
Time: 36 h
Structure (SMILES)	viability [%]
N=C(N)/N=C(\N)N1CCOCC1	105
CC(=O)Oc1cc(C(C)C)c(OCCN(C)C)cc1C	109
CCC(=O)NS(=O)(=O)c1ccc(-c2c(-c3ccccc3)noc2C)cc1	106
C[C@H]1CN(C[C@H](Cc2ccccc2)C(=O)NCC(=O)O)CC[C@@]1(C)c1cccc(O)c1	113
CCN1CCN(c2cc3c(cc2F)c(=O)c(C(=O)O)cn3C2CC2)CC1	97.9
C[N+]1(C)CCC(=C(c2ccccc2)c2ccccc2)CC1	88.6
C[C@@](Cc1ccc(O)c(O)c1)(NN)C(=O)O	97.6
CCc1oc2ccccc2c1C(=O)c1cc(Br)c(O)c(Br)c1	30.1
Cc1ccccc1N1C(=O)c2cc(S(N)(=O)=O)c(Cl)cc2NC1C (centres unmarked)	113
N=C(N)c1ccc2cc(OC(=O)c3ccc(N=C(N)N)cc3)ccc2c1	68.8
O=c1c(-c2ccc(O)cc2)coc2c([C@@H]3O[C@H](CO)[C@@H](O)[C@H](O)[C@H]3O)c(O)ccc12	114

Set 2
Species: human
Matrix: microsomes or S9
Tested at: 2 µM
Time: 0.5 h
Compound	remaining compound [%]
Oc1ccccc1-c1nc(-c2ccccc2O)n(-c2ccc(Br)cc2)n1	89.9
CNC[C@@H]1C[C@H](F)CN1C(=O)Cc1n[nH]c2ccccc12	> 100
O=S(=O)(c1ccccc1)c1nc(-c2ccccc2)oc1NCC1CCCO1 (centres unmarked)	2.5
CC1=C(C(=O)OC(C)C)C(c2ccc(F)cc2)N2N=CNC2=N1 (centres unmarked)	49.5
CCn1c2ccccc2n2cc(-c3ccc4c(c3)OCO4)nc12	0.144
Cc1ncc2c(c1O)COC(C)OC2 (centres unmarked)	98.2
CCOc1ccc(C2=NNC(c3cccnc3)=Nc3ccc(CC)cc32)cc1OCC	42.9
O=C(O[C@@H]1Cc2c(O)cc(O)cc2O[C@@H]1c1ccc(O)c(O)c1)c1cc(O)c(O)c(O)c1	59.6
Cc1cc(CC(C)n2ccnc2-c2ccc(C)o2)[nH]n1 (centres unmarked)	36.7
COc1cc(Br)c(S(=O)(=O)NC2CCN(C(=O)c3ccccc3)CC2)cc1OC	89.2

Set 3
Target: Calcium/calmodulin-dependent protein kinase type 1G (CAMK1G, Homo sapiens, UniProt Q96NX5)
Sequence of UniProt Q96NX5 (whole entry, looked up): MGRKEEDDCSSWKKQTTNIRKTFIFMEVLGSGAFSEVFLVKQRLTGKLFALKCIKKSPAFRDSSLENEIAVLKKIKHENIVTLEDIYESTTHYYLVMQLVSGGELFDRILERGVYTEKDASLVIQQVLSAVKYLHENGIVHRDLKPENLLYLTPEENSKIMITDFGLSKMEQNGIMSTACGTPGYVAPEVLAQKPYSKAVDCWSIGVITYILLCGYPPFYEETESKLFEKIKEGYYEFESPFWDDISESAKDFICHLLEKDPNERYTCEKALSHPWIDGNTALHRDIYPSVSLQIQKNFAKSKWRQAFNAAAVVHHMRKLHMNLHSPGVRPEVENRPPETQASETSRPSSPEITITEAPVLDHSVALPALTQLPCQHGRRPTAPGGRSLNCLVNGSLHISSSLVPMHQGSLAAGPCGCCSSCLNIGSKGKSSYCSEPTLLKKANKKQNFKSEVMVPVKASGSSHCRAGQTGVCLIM
Read-out: enzyme activity
Mode: inhibitor
Tested at: 0.5 µM
Reference: control
SMILES	remaining activity [%]
Nc1[nH]nc2nc3ccccc3nc12	97.9
O=c1c2ccccc2[nH]c(=S)n1CCN1CCC(=C(c2ccc(F)cc2)c2ccc(F)cc2)CC1	104
O=C1NC(=O)C(c2cn(CCCn3ccnc3)c3ccccc23)=C1Nc1ccccc1	84.6
N#CC(C#N)=C(N)/C(C#N)=C/c1ccc(O)cc1	104
COc1ccc(OC)c2c(=S)c3ccccc3[nH]c12	99.5
Cc1cccc(-c2[nH]c(C(C)(C)C)nc2-c2ccc3c(c2)OCO3)n1	98.7
Nc1ccc2ncnc(NCCc3ccc(Oc4ccccc4)cc3)c2c1	102
O=C(CCCc1ccc(-c2ccccc2F)cc1)Nc1ccc(O)cc1	96.8
COc1cc2ncnc(Nc3ccc(F)c(Cl)c3)c2cc1OCCCN1CCOCC1	103
CC(C)[C@H](CO)Nc1nc(Nc2cc(N)cc(Cl)c2)c2ncn(C(C)C)c2n1	105
COc1ccc(C(=O)Nc2sc3c(c2C(N)=O)CCCC3)cc1OC	99.4
OCC(O)CCON=C1C(c2c(O)[nH]c3ccccc23)=Nc2ccccc21 (centres unmarked)	102
Cc1nc(-c2ccccc2)c(-c2ccncc2)o1	92.8
COc1cc2ncnc(Nc3ccc(Oc4ccccc4)cc3)c2cc1OC	101
Cn1sc(=O)n(Cc2ccccc2)c1=O	117

Set 4
SMILES: O=C(NS(=O)(=O)c1ccc(NCC2CCOCC2)c([N+](=O)[O-])c1)c1ccc(N2CCN(Cc3ccc(C(F)(F)F)cc3-c3ccc(Cl)cc3)CC2)cc1Oc1cnc2[nH]ccc2c1
Read-out: cell-free assay
Method: competition with immobilised ligand
Tested at: 1 µM
target	remaining binding
CAMKK2 (Homo sapiens, UniProt Q96RR4)	99%
CDK15 (Homo sapiens, UniProt Q96Q40)	100%
NEK6 (Homo sapiens, UniProt Q9HC98)	89%
PIP4K2B (Homo sapiens, UniProt P78356)	100%
PIK3C3 (Homo sapiens, UniProt Q8NEB9)	100%
STK39 (Homo sapiens, UniProt Q9UEW8)	89%
INSRR (Homo sapiens, UniProt P14616)	98%
Tyrosine-protein kinase JAK3, JH1 (JAK3, Homo sapiens, UniProt P52333)	85%
VRK2 (Homo sapiens, UniProt Q86Y07)	89%
FLT3 (Homo sapiens, UniProt P36888, D835Y)	99%
PDGFRB (Homo sapiens, UniProt P09619)	100%

Excerpt of the above (set 1):
Structure (SMILES)	viability [%]
Cc1ccccc1N1C(=O)c2cc(S(N)(=O)=O)c(Cl)cc2NC1C (centres unmarked)	113
N=C(N)/N=C(\N)N1CCOCC1	105
CCC(=O)NS(=O)(=O)c1ccc(-c2c(-c3ccccc3)noc2C)cc1	106
N=C(N)c1ccc2cc(OC(=O)c3ccc(N=C(N)N)cc3)ccc2c1	68.8
CCc1oc2ccccc2c1C(=O)c1cc(Br)c(O)c(Br)c1	30.1
